Results pooled from the literature.
A part holds a random share of what one study measured.
Sequence of UniProt P42684 (whole entry, looked up): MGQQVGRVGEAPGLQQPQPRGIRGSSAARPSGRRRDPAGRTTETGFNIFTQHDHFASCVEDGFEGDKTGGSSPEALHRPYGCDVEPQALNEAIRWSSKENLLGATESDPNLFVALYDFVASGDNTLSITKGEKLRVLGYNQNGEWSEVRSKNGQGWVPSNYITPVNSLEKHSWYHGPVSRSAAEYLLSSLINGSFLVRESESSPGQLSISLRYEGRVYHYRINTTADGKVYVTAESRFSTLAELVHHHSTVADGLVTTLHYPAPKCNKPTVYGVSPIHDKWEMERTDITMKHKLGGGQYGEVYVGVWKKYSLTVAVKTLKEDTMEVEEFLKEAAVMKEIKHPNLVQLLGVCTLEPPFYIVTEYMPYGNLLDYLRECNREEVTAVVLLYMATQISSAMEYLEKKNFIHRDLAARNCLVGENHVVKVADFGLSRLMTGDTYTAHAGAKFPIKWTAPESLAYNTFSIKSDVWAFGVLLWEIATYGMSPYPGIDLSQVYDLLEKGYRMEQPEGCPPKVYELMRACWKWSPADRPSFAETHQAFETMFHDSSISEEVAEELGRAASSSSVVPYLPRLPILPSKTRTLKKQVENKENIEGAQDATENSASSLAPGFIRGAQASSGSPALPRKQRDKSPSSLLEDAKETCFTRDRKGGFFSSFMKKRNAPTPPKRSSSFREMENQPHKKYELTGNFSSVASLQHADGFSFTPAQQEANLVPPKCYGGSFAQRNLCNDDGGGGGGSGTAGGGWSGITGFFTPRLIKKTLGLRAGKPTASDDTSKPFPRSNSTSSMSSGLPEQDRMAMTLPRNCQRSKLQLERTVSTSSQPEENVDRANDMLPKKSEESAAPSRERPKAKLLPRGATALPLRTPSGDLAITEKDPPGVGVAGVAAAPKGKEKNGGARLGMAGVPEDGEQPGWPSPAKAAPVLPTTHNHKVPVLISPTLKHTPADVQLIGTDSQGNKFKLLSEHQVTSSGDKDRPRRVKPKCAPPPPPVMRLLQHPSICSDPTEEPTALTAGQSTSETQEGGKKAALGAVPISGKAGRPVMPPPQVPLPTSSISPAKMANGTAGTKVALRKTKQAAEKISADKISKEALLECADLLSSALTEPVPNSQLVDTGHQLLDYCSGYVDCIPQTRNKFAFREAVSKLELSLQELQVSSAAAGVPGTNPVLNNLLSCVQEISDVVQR
Sequence of UniProt P07949 (whole entry, unmodified, looked up): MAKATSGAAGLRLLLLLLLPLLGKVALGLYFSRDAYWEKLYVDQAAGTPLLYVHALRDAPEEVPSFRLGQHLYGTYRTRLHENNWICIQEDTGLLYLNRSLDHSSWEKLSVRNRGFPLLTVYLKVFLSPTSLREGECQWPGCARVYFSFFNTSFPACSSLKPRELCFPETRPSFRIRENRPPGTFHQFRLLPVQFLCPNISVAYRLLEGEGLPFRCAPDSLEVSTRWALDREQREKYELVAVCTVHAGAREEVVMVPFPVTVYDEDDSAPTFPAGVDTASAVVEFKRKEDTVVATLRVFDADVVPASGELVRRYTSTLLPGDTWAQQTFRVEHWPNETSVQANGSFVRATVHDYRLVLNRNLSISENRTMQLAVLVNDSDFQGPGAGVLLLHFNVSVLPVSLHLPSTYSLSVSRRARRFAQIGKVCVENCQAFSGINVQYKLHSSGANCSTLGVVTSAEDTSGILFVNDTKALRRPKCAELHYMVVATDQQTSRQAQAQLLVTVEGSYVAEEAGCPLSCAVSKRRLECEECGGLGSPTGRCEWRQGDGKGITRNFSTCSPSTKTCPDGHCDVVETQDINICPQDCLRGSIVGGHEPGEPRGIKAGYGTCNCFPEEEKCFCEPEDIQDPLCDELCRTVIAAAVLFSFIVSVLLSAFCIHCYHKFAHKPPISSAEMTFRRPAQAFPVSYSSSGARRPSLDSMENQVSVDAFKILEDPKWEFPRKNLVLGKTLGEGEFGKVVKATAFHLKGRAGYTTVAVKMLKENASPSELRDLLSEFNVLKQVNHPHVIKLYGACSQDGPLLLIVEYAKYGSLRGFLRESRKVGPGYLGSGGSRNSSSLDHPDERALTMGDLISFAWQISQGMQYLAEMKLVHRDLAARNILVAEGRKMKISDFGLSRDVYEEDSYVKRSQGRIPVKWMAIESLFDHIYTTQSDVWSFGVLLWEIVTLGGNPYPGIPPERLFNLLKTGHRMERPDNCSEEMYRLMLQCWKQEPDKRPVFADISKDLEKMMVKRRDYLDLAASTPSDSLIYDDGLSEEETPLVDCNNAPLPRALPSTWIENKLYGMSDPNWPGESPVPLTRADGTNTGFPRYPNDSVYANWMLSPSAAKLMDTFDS
Sequence of UniProt Q9NYL2 (whole entry, looked up): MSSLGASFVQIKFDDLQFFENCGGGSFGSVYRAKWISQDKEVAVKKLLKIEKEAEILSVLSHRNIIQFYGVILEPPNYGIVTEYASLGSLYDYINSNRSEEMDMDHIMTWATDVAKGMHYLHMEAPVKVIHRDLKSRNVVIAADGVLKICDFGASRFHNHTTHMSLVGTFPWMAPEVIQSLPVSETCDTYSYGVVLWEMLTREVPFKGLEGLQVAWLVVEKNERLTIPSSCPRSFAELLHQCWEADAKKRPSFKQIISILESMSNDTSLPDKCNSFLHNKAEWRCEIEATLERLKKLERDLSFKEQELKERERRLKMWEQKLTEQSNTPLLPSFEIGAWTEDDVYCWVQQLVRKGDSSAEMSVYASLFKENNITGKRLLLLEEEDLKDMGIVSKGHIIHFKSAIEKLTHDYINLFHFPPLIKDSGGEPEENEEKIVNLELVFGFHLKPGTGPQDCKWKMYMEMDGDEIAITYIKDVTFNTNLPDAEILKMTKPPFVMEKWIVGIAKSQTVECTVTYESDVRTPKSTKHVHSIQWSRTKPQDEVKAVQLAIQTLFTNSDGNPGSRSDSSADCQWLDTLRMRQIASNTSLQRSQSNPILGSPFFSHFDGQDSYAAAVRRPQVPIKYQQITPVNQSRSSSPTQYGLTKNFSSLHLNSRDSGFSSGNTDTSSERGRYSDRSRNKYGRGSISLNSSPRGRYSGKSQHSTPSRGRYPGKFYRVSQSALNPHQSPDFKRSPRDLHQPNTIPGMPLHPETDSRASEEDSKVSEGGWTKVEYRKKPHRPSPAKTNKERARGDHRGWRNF
Sequence of UniProt O75747 (whole entry, looked up): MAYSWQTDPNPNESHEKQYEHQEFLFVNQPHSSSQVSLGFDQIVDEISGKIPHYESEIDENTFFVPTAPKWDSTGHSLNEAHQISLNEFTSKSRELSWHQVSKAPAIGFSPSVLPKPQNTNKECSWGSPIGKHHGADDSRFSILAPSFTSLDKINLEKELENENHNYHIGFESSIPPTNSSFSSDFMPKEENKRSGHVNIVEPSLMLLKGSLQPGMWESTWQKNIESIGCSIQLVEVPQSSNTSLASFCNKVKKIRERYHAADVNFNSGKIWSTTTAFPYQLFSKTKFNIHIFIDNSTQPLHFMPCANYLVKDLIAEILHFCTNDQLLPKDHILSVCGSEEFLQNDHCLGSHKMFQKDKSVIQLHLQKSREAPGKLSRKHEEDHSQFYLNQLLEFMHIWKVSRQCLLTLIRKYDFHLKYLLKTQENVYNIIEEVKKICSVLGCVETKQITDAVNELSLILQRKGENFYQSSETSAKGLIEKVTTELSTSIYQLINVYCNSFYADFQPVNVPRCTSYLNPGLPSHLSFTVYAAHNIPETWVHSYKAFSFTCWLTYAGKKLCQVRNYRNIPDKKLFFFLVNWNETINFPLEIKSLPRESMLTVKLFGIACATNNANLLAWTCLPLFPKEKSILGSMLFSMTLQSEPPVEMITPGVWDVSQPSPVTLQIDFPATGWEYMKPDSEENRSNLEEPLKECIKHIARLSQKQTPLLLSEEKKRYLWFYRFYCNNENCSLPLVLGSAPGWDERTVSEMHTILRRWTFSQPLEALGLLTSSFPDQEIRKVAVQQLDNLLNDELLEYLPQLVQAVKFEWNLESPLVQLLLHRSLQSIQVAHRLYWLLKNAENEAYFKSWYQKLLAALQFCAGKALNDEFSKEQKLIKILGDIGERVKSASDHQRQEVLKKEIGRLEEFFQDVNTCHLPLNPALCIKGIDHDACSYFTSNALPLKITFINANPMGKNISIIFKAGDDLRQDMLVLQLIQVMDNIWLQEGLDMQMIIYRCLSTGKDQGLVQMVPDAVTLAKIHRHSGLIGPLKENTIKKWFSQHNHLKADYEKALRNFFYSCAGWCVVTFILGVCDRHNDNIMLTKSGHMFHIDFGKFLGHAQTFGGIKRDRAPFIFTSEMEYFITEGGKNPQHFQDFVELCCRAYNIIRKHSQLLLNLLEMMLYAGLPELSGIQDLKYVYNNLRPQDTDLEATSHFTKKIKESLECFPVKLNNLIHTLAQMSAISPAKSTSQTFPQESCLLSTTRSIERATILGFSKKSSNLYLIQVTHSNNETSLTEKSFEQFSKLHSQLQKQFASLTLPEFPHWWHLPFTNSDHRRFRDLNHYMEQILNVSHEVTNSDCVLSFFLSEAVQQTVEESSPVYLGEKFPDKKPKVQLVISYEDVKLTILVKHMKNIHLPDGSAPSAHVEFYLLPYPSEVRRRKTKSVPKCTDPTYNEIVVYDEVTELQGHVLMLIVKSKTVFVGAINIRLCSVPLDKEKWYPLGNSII

Series 1
Target: Cyclin-dependent kinase 6, with cyclin D1 (CDK6, Homo sapiens, UniProt Q00534)
Sequence of UniProt Q00534 (whole entry, looked up): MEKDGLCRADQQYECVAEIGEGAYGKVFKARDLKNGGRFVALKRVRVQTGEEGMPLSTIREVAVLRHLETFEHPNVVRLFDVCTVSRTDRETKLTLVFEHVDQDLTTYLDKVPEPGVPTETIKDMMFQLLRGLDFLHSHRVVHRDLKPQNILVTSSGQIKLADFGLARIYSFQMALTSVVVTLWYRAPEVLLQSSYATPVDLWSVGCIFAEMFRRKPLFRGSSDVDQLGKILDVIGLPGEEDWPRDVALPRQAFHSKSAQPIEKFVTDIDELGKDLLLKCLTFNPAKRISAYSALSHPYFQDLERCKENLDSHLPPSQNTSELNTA
Read-out: enzyme activity
Action: inhibitor
Concentration: 0.5 µM
Relative to: control
Structure (SMILES) | remaining activity
CN(C)CCCn1cc(C2=C(c3c[nH]c4ccccc34)C(=O)NC2=O)c2ccccc21 | 58.3%
O=C(Nc1ccc(Cl)cc1)c1ccccc1NCc1ccncc1 | 93.4%
O=C1NC(=O)/C(=C/c2ccc3nccnc3c2)S1 | 97.5%
O=c1cc(N2CCOCC2)oc2c1ccc1ccccc12 | 102%
COc1cc2ncc(-c3ccccc3)nc2cc1OC | 94.1%
COc1ccc(Cl)cc1NC(=O)Nc1cc(C)nc2ccccc12 | 89.8%
CCOc1cc2ncnc(Nc3cccc(Br)c3)c2cc1OCC | 102%
CCN1/C(=C/C(C)=O)Sc2ccc(OC)cc21 | 108%
CC(C)[C@H](CO)Nc1nc(Nc2cccc(Cl)c2)c2ncn(C(C)C)c2n1 | 67.5%
Cn1cc(/C=C2\C(=O)Nc3ccc(S(N)(=O)=O)cc32)c2ccccc21 | 82.4%
CCC(=O)Nc1ccc2ncnc(Nc3cccc(Br)c3)c2c1 | 92.5%
Cc1ccc(NC(=O)c2ccc(CN3CCN(C)CC3)cc2)cc1Nc1nccc(-c2cccnc2)n1 | 99%
COc1cc2ncnc(N3CCN(C(=O)Nc4ccc(Oc5ccccc5)cc4)CC3)c2cc1OC | 95.1%
CC(C)c1nn(-c2c(Cl)cccc2Cl)c2nc(Cc3ccc(OCCO)cc3)[nH]c(=O)c12 | 19.8%
CS(=O)(=O)CCNCc1ccc(-c2ccc3ncnc(Nc4ccc(OCc5cccc(F)c5)c(Cl)c4)c3c2)o1 | 100%
COc1ccc(-c2cnc3c(-c4ccsc4)cnn3c2)cc1 | 53.4%
Nc1[nH]nc2nnc(-c3c(-c4ccccc4)nn4ccccc34)cc12 | 100%
COc1cc2ncnc(Nc3ccc(OCc4ccccc4)cc3)c2cc1OC | 96.7%
C[S+]([O-])c1ccc(-c2nc(-c3ccncc3)c(-c3ccc(F)cc3)[nH]2)cc1 (stereo not shown) | 100%
CC(=O)O/N=C1/C(c2c(O)[nH]c3cc(Br)ccc23)=Nc2ccccc21 | 53.2%
Cn1cnc2cc3c(Nc4cccc(Br)c4)ncnc3cc21 | 107%
Cc1nc(Nc2ncc(C(=O)Nc3c(C)cccc3Cl)s2)cc(N2CCN(CCO)CC2)n1 | 95.5%

Series 2
Species: human
Matrix: microsomes or S9
Concentration: 2 µM
Time: 0.5 h
Compound | remaining compound
O=C1CC(c2ccccc2)=NN1c1nc(-c2ccc(Cl)cc2)cs1 | 76.6%
CCOC(=O)Cn1c(C(=O)OCC)cc2cc(NS(=O)(=O)c3ccc(OC)c(OC)c3)ccc21 | 0.058%
Cc1cc(NC(=O)C(O)c2cc(Cl)cc(Cl)c2)c[nH]c1=O (stereo not shown) | 80.9%
Cc1nc2c(s1)CN(C(=O)CNS(=O)(=O)c1ccc(Oc3ccccc3)cc1)CC2 | 16.4%
CC1Cc2ccccc2N1S(=O)(=O)c1ccc2c(c1)c(=O)n(CC(=O)N1CCCC1)c(=O)n2C (stereo not shown) | 18.1%
CCOC(=O)c1cc(C(C)C)sc1NC(=O)c1cc(Cl)ccc1OC | > 99%
CC(C)C[C@@H]1NC(=O)[C@H](Cc2nc(Br)[nH]c2Br)NC1=O | 65.2%
O=C(COc1ccc(Cl)cc1Cl)Nc1nc2n(n1)C(c1ccccc1)CC(=O)N2 (stereo not shown) | 37.6%
COC(=O)c1c[nH]c(S(=O)(=O)Cc2csc(Br)c2)n1 | > 100%
CC(CC(=O)O)CC(=O)Nc1sc(C(C)C)cc1C(N)=O (stereo not shown) | 79.2%
COC(=O)C1(C(=O)OC)C[C@@H](c2ccccc2)c2ccc(N(C)C)cc2[C@@H]1CC(=O)c1ccccc1 | 1.51%
CCN1CCCC1CNC(=O)C1CCCN(c2ncnc3[nH]cnc23)C1 (stereo not shown) | 76.3%
COc1cc(C2CC(=O)c3cc4c(O)n[nH]c4nc3C2)cc(OC)c1OC (stereo not shown) | 94.6%
O=S(=O)(c1cccc2cccnc12)n1ncc2c(Cl)ncnc21 | 54.3%
COc1cc(-c2nc3c(c(=O)[nH]c(=O)n3CC(C)C)n2CC(C)C)cc(OC)c1OC | 81.7%
CC(C)c1nc2cc(N3CC(=O)C(c4nc(-c5ccccc5)cs4)=C3N)ccc2[nH]1 | 91.6%
CCOc1nc(Nc2nc(-c3ccccc3)cs2)nc(OCC)n1 | 79.3%

Series 3
Target: His6 tag
Method: AlphaScreen counter screen
Concentration: concentration not given
Compound | inhibition
Cn1c(=O)c(C(=O)NNS(=O)(=O)c2ccc(Br)cc2)c(O)c2ccccc21 | -4.6%
COc1ccc(-c2nnc3ccc(SCC(N)=O)nn23)cc1OC | -8.1%
CC[C@H](Nc1ncnc2[nH]cnc12)c1nc2cccc(F)c2c(=O)n1-c1ccccc1 | 1.1%
COc1ccc(C(=O)Nc2ccc3[nH]ncc3c2)c(OC)c1 | 5.5%
COC(=O)C(C)Sc1ccc2nnc(-c3ccc(Cl)cc3)n2n1 (stereo not shown) | -8.65%
CCc1cc2c(cc1N1CCC(N3CCOCC3)CC1)C(C)(C)c1[nH]c3cc(C#N)ccc3c1C2=O | 4.35%
COc1cc2ncn(-c3cc(OCc4ccccc4S(C)(=O)=O)c(C#N)s3)c2cc1OC | -15.2%
CC(C)CNc1nccn2c(-c3cccnc3)cnc12 | 14.8%
CCS(=O)(=O)N1CC(CC#N)(n2cc(-c3ncnc4[nH]ccc34)cn2)C1 | 9.5%
CCCCOC(=O)COC(=O)c1cc(=O)[nH]c2ccccc12 | 8.55%
OC1CCN(Cc2c(-c3ccco3)[nH]c3ncccc23)CC1 | 9.9%
CCCCc1c(-c2ccc(O)cc2)[nH]c2nccnc12 | -11.1%
NC(=O)NC(=O)CSc1nc2ccccc2c(=O)n1-c1ccccc1F | 1.4%
N#CC(=Cc1ccncc1)c1nc2ccccc2s1 | 12.3%
CC(C)n1nc(-c2ccc3oc(N)nc3c2)c2c(N)ncnc21 | 1.05%

Series 4
Structure (SMILES): COc1ccc2c(c1)O[C@@H](c1ccc(OC)c(OC)c1)C[C@H]2NC(=O)C1(c2ccc3c(c2)OC(F)(F)O3)CC1
Read-out: cell-free assay
Method: competition with immobilised ligand
Concentration: 1 µM
target | remaining binding [%]
RET (Homo sapiens, UniProt P07949, V804M) | 95
MYLK2 (Homo sapiens, UniProt Q9H1R3) | 90
MAP3K4 (Homo sapiens, UniProt Q9Y6R4) | 95
PIK3CA (Homo sapiens, UniProt P42336, M1043I) | 91
CSNK2A2 (Homo sapiens, UniProt P19784) | 87
SGK2 (Homo sapiens, UniProt Q9HBY8) | 94
TAOK1 (Homo sapiens, UniProt Q7L7X3) | 93
MAP3K20 (Homo sapiens, UniProt Q9NYL2) | 97
DYRK2 (Homo sapiens, UniProt Q92630) | 75
IRAK1 (Homo sapiens, UniProt P51617) | 80
SLK (Homo sapiens, UniProt Q9H2G2) | 100
PIK3C2G (Homo sapiens, UniProt O75747) | 83
KIT (Homo sapiens, UniProt P10721, V559D) | 86
NUAK2 (Homo sapiens, UniProt Q9H093) | 76
ULK2 (Homo sapiens, UniProt Q8IYT8) | 77
ABL2 (Homo sapiens, UniProt P42684) | 89

A few entries again (series 2):
Compound | remaining compound
O=C(COc1ccc(Cl)cc1Cl)Nc1nc2n(n1)C(c1ccccc1)CC(=O)N2 (stereo not shown) | 37.6%
O=S(=O)(c1cccc2cccnc12)n1ncc2c(Cl)ncnc21 | 54.3%
CCN1CCCC1CNC(=O)C1CCCN(c2ncnc3[nH]cnc23)C1 (stereo not shown) | 76.3%
COc1cc(-c2nc3c(c(=O)[nH]c(=O)n3CC(C)C)n2CC(C)C)cc(OC)c1OC | 81.7%
O=C1CC(c2ccccc2)=NN1c1nc(-c2ccc(Cl)cc2)cs1 | 76.6%
Cc1cc(NC(=O)C(O)c2cc(Cl)cc(Cl)c2)c[nH]c1=O (stereo not shown) | 80.9%
COC(=O)C1(C(=O)OC)C[C@@H](c2ccccc2)c2ccc(N(C)C)cc2[C@@H]1CC(=O)c1ccccc1 | 1.51%
Cc1nc2c(s1)CN(C(=O)CNS(=O)(=O)c1ccc(Oc3ccccc3)cc1)CC2 | 16.4%
CC(C)C[C@@H]1NC(=O)[C@H](Cc2nc(Br)[nH]c2Br)NC1=O | 65.2%
